Experimental data from different studies.
Every numbered part comes from another study and shows a few of its results, in no order. Substitutions count along the parent as printed.

Series 1 — target: CCNA1, cyclin fold, Cln2 fusion (human); technique: yeast growth competition, sequencing; matrix: yeast; notes: weak parent motif; baseline: not given; reading: higher = stronger binding
Starting sequence: CDC6 docking peptide (human); TLKGRRLVFDNQL
Change | normalised enrichment score
TLKGRRLAFDNQL [V8A] | -0.184
TLKGARAVFDNQL [R5A L7A] | 0.0557
SLKGRRLVFDNQL [T1S] | 0.184
TLKKRRLVFDNQL [G4K] | -0.222
TLKGRRLVFDNIL [Q12I] | 0.237
TLKGRRLHFDNQL [V8H] | 0.577
TCKGRRLVFDNQL [L2C] | 0.2
TLKGRRLVFDNQR [L13R] | 0.232
NLKGRRLVFDNQL [T1N] | -0.00523
TLKGRRLVPDNQL [F9P] | 0.561
TLKLRRLVFDNQL [G4L] | -0.115
TLKGTRLVFDNQL [R5T] | 0.35
TLKGRWLVFDNQL [R6W] | -0.378
TLKSRRLVFDNQL [G4S] | -0.187
TDKGRRLVFDNQL [L2D] | -0.0604
TLKGRRLKFDNQL [V8K] | 0.428

Series 2 — technique: RNA Bind-n-Seq; form: RNA; matrix: in vitro; tested at: not given; baseline: input RNA pool; reading: higher = stronger binding
Target: RING finger protein unkempt homolog, zinc fingers 1-6, GST-SBP tag (UNK, Homo sapiens, UniProt Q9C0B0, residues 30-357)
Notes: RNA with constant flanks, human and mouse sites, ends assumed
Construct (chain): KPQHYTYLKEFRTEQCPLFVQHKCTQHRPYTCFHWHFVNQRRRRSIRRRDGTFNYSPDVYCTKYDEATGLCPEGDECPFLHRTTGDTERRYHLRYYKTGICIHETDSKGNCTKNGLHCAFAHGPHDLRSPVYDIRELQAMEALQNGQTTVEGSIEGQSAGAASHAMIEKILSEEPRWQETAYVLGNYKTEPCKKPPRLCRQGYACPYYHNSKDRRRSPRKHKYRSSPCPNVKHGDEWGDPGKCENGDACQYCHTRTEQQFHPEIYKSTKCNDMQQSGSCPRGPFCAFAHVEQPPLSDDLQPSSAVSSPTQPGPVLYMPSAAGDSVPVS
Sequence | bound/input enrichment
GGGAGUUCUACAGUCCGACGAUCCACCAUAAAAAGUAACUCAUAACUCAUAAAUAAAGCAUAACUCAGUAAAGUGAGAAGGAUGAAUACCUAACAUGAAGGAGAUCCUUGGUGACAGGUAGGCAUGGGGACAAGAGCCACUCUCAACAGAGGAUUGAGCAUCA | 0.233 ratio
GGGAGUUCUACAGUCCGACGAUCAGAAUGGAAUCCUGACAAUGAUACAGGACACACAAUGGGUGAUCCAUUCAUGUUGCAGCAGUCUACAAAUCCAGCACCAGGAAUUCUGGGACCUCCACCUCCCUCAUUUCAUCUUGGGGGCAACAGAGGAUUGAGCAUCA | 0.148 ratio
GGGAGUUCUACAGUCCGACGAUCGGGGACUCUAGACACCAGGGUAUGGGCUGAGGACUCCUAAUAUUGCCAAAGGAUUCAACUUAUUUAACAACCCCUAUUAUCCCCGCCCCCCUGUCCCUUAAAAGAGACGAAUGGGGCGGGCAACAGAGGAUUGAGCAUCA | 0.177 ratio
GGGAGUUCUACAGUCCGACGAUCGGGUAUUUCACAAAGCCUCCACUUGUAGCUCACGCUUCAAGGUCAGCAGAAUCAAAGGUUAUAGAAUUUGGAAAAUCCAAUUUCGUUCAGCCCAUGCAGGGUGAAGUAAUAAGGCCACCCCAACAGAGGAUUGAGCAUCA | 0.127 ratio
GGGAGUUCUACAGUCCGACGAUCAUUUCACAAAGCUCCCGAAUCUGGCUUUGUCCUCACUGUCGGAGGUCAGAGAAGCCUCCAUUAGAGAAAAUUCUGCCUCUGCUGGCCUCCCUACAGCGUAUACGAGUUCGUCUUCCUGAACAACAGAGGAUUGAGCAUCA | 0.509 ratio
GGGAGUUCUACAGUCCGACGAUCAAGGCGUUCCCGGAGCACCUGUACCAGCGCGUCAAAAUCAGGAAUAAGGUUUUUGGAUUGCAAGGGGUUUCCAGGGGCAUGUAUGACGGUCCUGUGUACGAGGUACCAGCUACACCCAAACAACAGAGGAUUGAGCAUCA | 0.127 ratio
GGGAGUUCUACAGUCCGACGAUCAUCUAUUCCCCUCUUUUUAUUUCUGGGGCCGGUUUUUUCCUUUUUUUUUUAAUCCCUCCUUAGCUUUUUAUGCGCUCAUAAUCAAUUGUACCCAUUCCCUACAUAACGGGAGCAGUGAUCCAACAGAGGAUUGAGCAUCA | 173 ratio
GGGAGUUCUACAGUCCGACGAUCUAUACUAACAAGGUCAUUACUUUGUGGUAUCGUCCACCUGAAUUGCUCUUGGGAGAAGAACGAUAUACACCAGCCAUUGAUGUAUGGAGCUGUGGAUGUAUCCUUGGUGAACUCUUCACUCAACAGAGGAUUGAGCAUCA | 0.118 ratio
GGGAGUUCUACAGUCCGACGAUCCCAAGCCUUAUGCCUUUGAUCGUGUGUUCCAGUCAAGCACAUCUCAAGAGCAAGUAUACAACGACUGUGCAAAAAAGAUUGUUAAAGAUGUUCUUGAGGGCUAUAAUGGAACAAUAUUUGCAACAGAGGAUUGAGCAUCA | 0.0839 ratio
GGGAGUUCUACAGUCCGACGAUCAGUACUGCCCGUGCAAAUCCCACAACACUGAAUGCAAAGUAGCAAUUUCCAUAGUCACAGUUAGGUAGCUUUAGGGCAAUAUUGCCAUGGUUUUACUCAUGUGCAGGUUUUGAAAAUGUACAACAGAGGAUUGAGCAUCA | 46.7 ratio
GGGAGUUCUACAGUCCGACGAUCACACAGUGAUUCUGCAGAGCCUGAGCUGCUGCUGUGGUGUGGCCCACUGGAGCAAACUGCUGGCACCUAUUCUGGGUUGCUUGUGAACUUCUACUCAUUUCCUAAAUUAAAACAUGCAGCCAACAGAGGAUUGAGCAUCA | 0.164 ratio

Series 3 — technique: EMSA with sequencing; form: double-stranded DNA, one strand shown; matrix: in vitro; tested at: 10 and 20 nM; baseline: negative control set to 0; reading: higher = stronger binding
Target: Hepatocyte nuclear factor 3-alpha (Foxa1, Mus musculus, UniProt P35582, residues 1-468, full length assumed)
Sequence of UniProt P35582 (whole entry, looked up): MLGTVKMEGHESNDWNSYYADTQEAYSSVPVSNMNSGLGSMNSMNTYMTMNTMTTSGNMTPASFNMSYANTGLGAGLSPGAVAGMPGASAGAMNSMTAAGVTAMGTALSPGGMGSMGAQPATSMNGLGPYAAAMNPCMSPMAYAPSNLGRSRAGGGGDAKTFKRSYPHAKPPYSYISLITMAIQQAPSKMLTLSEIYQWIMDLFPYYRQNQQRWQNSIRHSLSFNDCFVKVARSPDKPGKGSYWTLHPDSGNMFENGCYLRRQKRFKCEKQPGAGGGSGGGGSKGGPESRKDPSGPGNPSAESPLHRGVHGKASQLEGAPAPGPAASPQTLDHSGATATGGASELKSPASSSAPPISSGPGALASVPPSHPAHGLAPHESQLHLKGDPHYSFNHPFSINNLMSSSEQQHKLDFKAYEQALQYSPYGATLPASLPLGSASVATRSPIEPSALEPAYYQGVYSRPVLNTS
Notes: whole designed probe, mean of two concentrations, ends assumed
Sequence | normalised bound fraction [ratio]
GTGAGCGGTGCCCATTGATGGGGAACATCTTCCCCCTCTTCCTTGCCCCACCAGCTCACCTACGGGGGTTATTTGCAGATAGGAAAATAAATAAAGCCGGCATTCGTTAACGCAGTTCACGCGCATACTGCTGTTTGCTCTGCATGAATCATGGTCCTTACGCGAGGCGTGGCTCCGGGAGAGCAAAGCACCGTGTCAGGCGCATGATCCGGGGTGGCCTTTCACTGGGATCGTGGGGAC | 0.361
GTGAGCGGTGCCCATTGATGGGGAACTCTAATCCATACCAAGGATTCCCATGGGGAAACTGTTATCTCTCAACTCAGTGAGGGCTATTGACAAAGACCAGTGCTCTTTCTTCTCTGTAGGTAATCTGTGACTCATGCAAGCCTGAGGGAGAAAATACAGTATATCTAAGAGTTAAGACCTCCCAGCTTCACATTCTGTTATAGCAGCTGCTTCATGCCATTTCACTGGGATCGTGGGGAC | -0.019
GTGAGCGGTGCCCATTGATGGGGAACCTTTCGAAATGCTTTAGCTTTAATAGTTGAGATTGCAGTAAATAATACATTTTTTTGTACCTTAAGCAAATAGAGTCTTAAAAAATGTCAGTGTAAACATGTAAATCAAAGATAGAAAACCAAATAACAAAATAAAAGTATATCATACTTGCATTGGGAAAGAGGCATATATGTATATAGGAACTATGGTAGTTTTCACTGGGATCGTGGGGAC | 0.385
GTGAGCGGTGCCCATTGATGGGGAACAAATAAGGCGCGCGAGAGAGGCCAACACGTCGCGGAGGGAGATGTTGTTATTTTTTGCTGTTGTGCGTCCCTGACGTCACATCCACCTGCTGGGTAATCTACCGGGCTCCCAGAAAAAAAAAATCGCAATTGCCAAAGAATGGGGGGGGGGGTTGGGGGGAGGGATCCAGGGAGGGGGAAGTGAGGGGCGTCCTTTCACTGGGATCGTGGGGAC | 0.233
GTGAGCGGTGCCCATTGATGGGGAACCAGAAGAATTTTGAGACAAGTTCTCAAACATTTCTCTGCCTTATGGACCCAAACATCCAGTTTCTCCTTTATGCCCAGGTTGCAGTTCAGCTCCTGTTTACATTGAGATCTTTGTGCAATTCCTAATATGGCCCAGTTTCCCTCACCCAACATGTTGGGTGGAGCCCAGTATCTTCAGGCTCCAGCTGGGCCCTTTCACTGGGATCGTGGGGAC | 0.245
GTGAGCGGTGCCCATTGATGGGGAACTGTGAGCTTGTTTGTTCACTGAAAGCACTCATCATAAGCCTCATCAATATAAAAACTCTTGGTAGGACCAAGGGCAAACTAAGCTGAAGATCATGTTTGCATAGTTCACCTGCAACTTACCAACGTAGTTCAGAATAGAGTATGTCAAACCACCTTATAAAAACTGGGGCATCTGAAGGCATAAAAGTGTTCATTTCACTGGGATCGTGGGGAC | 0.33
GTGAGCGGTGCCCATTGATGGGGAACGTCCCCTTGTGCGTAGATGGTGGCAAATGATTGTTTGCCAAGCCTTCTACCTCCTCCCTTTCTGTGTTCCATTGAGATCATGGAAATGCAAAGTAAATAGCCATGGAGTAAAATGCCTCCGAGAGTATTTATTTAAGAGTATTGTTCCAGGATATGCACGAAGATAAAGACTTTATGTAATGAATGAGTGACTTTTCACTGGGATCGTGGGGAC | 0.417
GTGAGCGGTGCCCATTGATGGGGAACGGCTGCTTCTCCCTTTTGGCTGTTGTGCATATTGCTGCTATGAACATGGGTGTGCAAATACCTCTTTGAGTCACTGCTTTCACTTCTTTTTAGAAATTACTCAGCAGTGGAATTGCTGAGTCATGTGATAATTCTGTGTTTAATTTTTTTTGAGGAAACTCCATACTGTTCTCATGGTGGCTGCACCATTTAATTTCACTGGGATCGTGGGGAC | 0.0773

Series 4 — technique: RNA Bind-n-Seq; form: RNA; matrix: in vitro; tested at: 200 nM; notes: whole 134-nt RNA, ends assumed; together with: 150 mM LiCl; baseline: input library; reading: higher = stronger binding; library: 7-deaza-guanosine replaces G
Target: Ras GTPase-activating protein-binding protein 1, full length (G3BP1, Homo sapiens, UniProt Q13283)
Sequence of UniProt Q13283 (whole entry, looked up): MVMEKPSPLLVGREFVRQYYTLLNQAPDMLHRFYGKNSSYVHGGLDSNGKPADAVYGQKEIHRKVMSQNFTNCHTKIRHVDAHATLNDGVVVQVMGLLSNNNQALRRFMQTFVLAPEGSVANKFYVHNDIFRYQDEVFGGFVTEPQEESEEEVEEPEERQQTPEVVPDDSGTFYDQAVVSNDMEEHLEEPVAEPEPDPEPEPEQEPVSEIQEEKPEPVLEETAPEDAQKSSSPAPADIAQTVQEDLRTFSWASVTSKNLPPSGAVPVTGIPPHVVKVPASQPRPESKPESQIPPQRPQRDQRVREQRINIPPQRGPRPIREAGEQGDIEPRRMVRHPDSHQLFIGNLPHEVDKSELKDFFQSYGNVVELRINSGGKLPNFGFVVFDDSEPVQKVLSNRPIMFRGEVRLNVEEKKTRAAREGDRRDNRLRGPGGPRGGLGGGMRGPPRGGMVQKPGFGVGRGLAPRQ
Sequence | log2 enrichment
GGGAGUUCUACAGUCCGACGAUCCAAGUCCUGUGCUACACAUCGUAUGUACCGAAUCGGGGUGGGGAAAGGGGAGGGGAAAGUAUUAUGUUACGCCGUUCGGAUCUGCACUUCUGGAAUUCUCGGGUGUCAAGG | -0.508
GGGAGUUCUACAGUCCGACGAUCAAGUCCUGUGCUACACAUCGUAUGUACCGAAUCGGGGAGGGGUGGGGAAAAAGGGGAAAGUAUUAUGUUACGCCGUUCGGAUCUGCACUUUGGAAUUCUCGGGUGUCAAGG | 0.236
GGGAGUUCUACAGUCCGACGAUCCUCAAGUCCUGUGCUACACAUCGUAUGUACCGAAUCGGGGUUGGUUGGGUUGGAAAGUAUUAUGUUACGCCGUUCGGAUCUGCACUUCCAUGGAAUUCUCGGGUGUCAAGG | -0.188
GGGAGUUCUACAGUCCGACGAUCCCUCAAGUCCUGUGCUACACAUCGUAUGUACCGAAUCGGAAAGGUUUGGAGGAAAGUAUUAUGUUACGCCGUUCGGAUCUGCACUUCCAGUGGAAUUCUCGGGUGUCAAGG | -0.179
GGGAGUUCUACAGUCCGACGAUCUUAGGUGGCUCCAGGAUGUAUUUAACGUGCCCUUGGUCAUCCAGAUGACGGAUGACGAGAAGUAUCUGUGGAAGGACCUGACCCUGGACCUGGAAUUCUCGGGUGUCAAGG | -0.718
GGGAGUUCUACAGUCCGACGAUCUGCAUCUGCACUGGAGAAAUGGAAGACAGCAAUCCGGGAAGCUCAGACUUUCUCCAGGAUGCACGUGCUGCUUGGGAUGCUUGAUGCCUGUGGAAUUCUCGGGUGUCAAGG | -0.994
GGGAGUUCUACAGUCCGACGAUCCACAGACAACACGCACCCACACAGACACAGAGGGAAGGGGUUGGGAUCGGGACAGGGUGCACAGCAGGGCGGGGUAGGACCCCAGCCCCUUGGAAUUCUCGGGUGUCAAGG | 0.173
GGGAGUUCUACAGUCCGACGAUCUCAGCAACCACCUCAACUCAUUGACUCCGCCAACAUCCGUCAGGAGGAUGCCUUUGAUAACAACAGUGACAUUGCUGAAGAUGGUGGCCAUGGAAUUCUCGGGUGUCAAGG | -0.124
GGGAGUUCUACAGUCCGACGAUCUGCUGGAGAUGCAAUAUAUGAGGUGGUGAGUCUACAGCGAGAGUCUGACAAGGAGGAACCAGUCACUCCUACUAGUGGAGGGGGUCCAAUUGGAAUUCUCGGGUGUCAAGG | -3.83
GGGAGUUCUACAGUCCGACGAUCUCCUGUGCUACACAUCGUAUGUACCGAAUCGGGUUUUUUUGGGUUUGGGUUUUUUUGGGAAAGUAUUAUGUUACGCCGUUCGGAUCUGCAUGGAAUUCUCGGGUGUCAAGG | 0.334
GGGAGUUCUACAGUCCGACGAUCCUCAAGUCCUGUGCUACACAUCGUAUGUACCGAAUCGGGAAGGAAGGGAAGGGAAAGUAUUAUGUUACGCCGUUCGGAUCUGCACUUCCAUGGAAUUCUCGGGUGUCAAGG | -0.176

Some of these lines once more (series 1):
Change | normalised enrichment score
TLKGRRLVPDNQL [F9P] | 0.561
SLKGRRLVFDNQL [T1S] | 0.184
TCKGRRLVFDNQL [L2C] | 0.2
TLKGRRLKFDNQL [V8K] | 0.428
TLKGRRLVFDNIL [Q12I] | 0.237
TLKGRRLHFDNQL [V8H] | 0.577
